Experimental data pooled from the literature.
± marks the error that the study gave.
Cell line: HEK293

Structure (SMILES) | test | conditions | how to read | quantity | value
CC(C)C[C@@H](C=O)NC(=O)[C@H](CC(C)C)NC(=O)[C@H](CC(C)C)NC(=O)OCc1ccccc1 | refers to: CD4 signal peptide-FLuc reporter | concentration not given, 5 h, time-course chase, unit not given, with: cycloheximide | baseline: untreated | FLuc activity | 1.37
COc1cc(NC(=O)c2ccco2)ccc1S(N)(=O)=O | cell viability, MTT | 48 h |  | IC50 | > 100 µM
O=C(NCCCNS(=O)(=O)c1ccc(OC(F)(F)F)cc1)C1=Cc2ccccc2S1(=O)=O | immunoblotting, refers to: REST protein | 3 µM, 3 days | baseline: DMSO | protein level | < 40%
COc1cc(NC(=O)c2ccc(C)c([N+](=O)[O-])c2)ccc1S(N)(=O)=O | cell viability, MTT | 48 h |  | IC50 | > 100 µM
O=c1[nH]c(CCl)nc2scc(-c3ccccc3)c12 | cell viability, resazurin | 24 h |  | EC50 | 4.9 ± 0.6 µM
CCOc1ccc(-c2nc(CNCCc3ccc(F)cc3)cs2)cc1 | MTT |  | baseline: CC50 over IC50 | selectivity index | 2.28
O=c1[nH]c(CCl)nc2scc(-c3cccc(F)c3)c12 | cell viability, resazurin | 24 h |  | EC50 | 6.5 ± 0.5 µM
CCN(CCO)CCCC(C)Nc1ccnc2cc(Cl)ccc12 (stereo not shown) | protein secretion | concentration not given, unit not given | baseline: mock | secreted Gaussia luciferase | 0.324
COc1ccc(C(=O)Nc2ccc(NC(=N)N)c(OCc3cc(C)ccc3C)c2)cc1 | cell growth, MTT | 48 h |  | IC50 | > 500 µM
O=c1[nH]c(CCl)nc2scc(-c3ccccc3F)c12 | cell viability, resazurin | 24 h |  | EC50 | 5 ± 0.6 µM

Excerpt of the above:
Structure (SMILES) | test | conditions | how to read | quantity | value
CC(C)C[C@@H](C=O)NC(=O)[C@H](CC(C)C)NC(=O)[C@H](CC(C)C)NC(=O)OCc1ccccc1 | refers to: CD4 signal peptide-FLuc reporter | concentration not given, 5 h, time-course chase, unit not given, with: cycloheximide | baseline: untreated | FLuc activity | 1.37
